Experimental data pooled from the literature.
Protocols differ between the studies behind these lines.
Technique: steady-state kinetics
B1: GLYR2 (Arabidopsis thaliana, UniProt F4I907); chain STRDELGTVSIGFLGMGIMGSPMAQNLIKAGCDVTVWNRTKSKCDPLVGLGAKYKSSPEEVTATCDLTFAMLADPESAIDVACGKNGAIFGISSGKGYVDVSTVDVASSILISKQIKDTGALFLEAPVSGSKKPAEDGQLIFLTAGDKPLYEKAAPFLDIMGKSKFYLGEVGNGAAMKLVVNMIMGSMMASFAEGILLSQKVGLDPNVLVEVVSQGAINAPMYSLKGPSMIKSVYPTAFPLKHQQKDMRLALGLAESVSQSTPIAAAANELYKVAKSYGLSDEDFSAVIEALKAAKSREA
B2: enzyme N249W (Thermobifida fusca, UniProt Q47RK4); chain MTDVYILDAVRTPFGRYGGALSGIRPDDLAAHVLRALAERSPGLDPAAVDDVFFGDANGAGEDNRNVARMAALLAGWPTSVPGVTLNRLCGSGMESVIAANRAIAVGDASLAVAGGVESMSRAPWVLPKPAQGFPTGHETLYSTTLGWRMVNPAMPEQWTVSLGESTEQVAATYGISRAEQDAFALRSHERAARAWAEGVFDAEITQIPGAELERDESIRETSAEKLAALKPAFRPDGTITAGNASPLWDGAAALLIGDAAAAERVGREPLARIVSRGVAAVDPDVFGIGPVQAAEIALRRAGIGWDDLSVVELNEAFAAQSLACLKLWPDLDPEIVNPNGGAIAIGHPLGASGARIVGTLAHELHRRGGGWGLAAICIGVGQGLAVVLHR
B3: waaG (Escherichia coli, UniProt P25740); chain MIVAFCLYKYFPFGGLQRDFMRIASTVAARGHHVRVYTQSWEGDCPKAFELIQVPVKSHTNHGRNAEYYAWVQNHLKEHPADRVVGFNKMPGLDVYFAADVCYAEKVAQEKGFLYRLTSRYRHYAAFERATFEQGKSTKLMMLTDKQIADFQKHYQTEPERFQILPPGIYPDRKYSEQIPNSREIYRQKNGIKEQQNLLLQVGSDFGRKGVDRSIEALASLPESLRHNTLLFVVGQDKPRKFEALAEKLGVRSNVHFFSGRNDVSELMAAADLLLHPAYQEAAGIVLLEAITAGLPVLTTAVCGYAHYIADANCGTVIAEPFSQEQLNEVLRKALTQSPLRMAWAENARHYADTQDLYSLPEKAADIITGGLDG
B4: enzyme H376D (Acetivibrio thermocellus, UniProt A3DJ38); chain MKLTIPELSLVVLIGSSGSGKSTFAKKHFKPTEVISSDFCRGLVSDDENDQTVTGAAFDVLHYIVSKRLQLGKLTVVDATNVQESARKPLIEIAKDYHCFPVAVVFNLPEKVCQERNKNRTDRQVEEYVIRKHTQQLKKSIKGLQREGFRYVYILNSPEEVEEVVFERQPLWNNKKDEHGPFDIIGDIHGCYDELKMLLEKLGYLIEEVEGGVGSGKYRVTHPEGRKVLFLGDLVDRGPKITEVLKLVMGMVKSGIALCVPGNHDVKLLRKLNGRDVQITHGLDRTLEQLAKEPQEFIEEVKAFIDGLVSHYVLDDGKLVVAHAGMKEEFQGRGSGKVREFALYGETTGETDEYGLPVRYDWASDYRGKALVVYGDTPQAEVLKVNNTINIDTGCVFGGKLTAYRYPEREIVDVKALKTYYEPAKPFLPKEDMAERFEARTDNDILDINDVLGKKIITTRLMSSITIHEENSIAALEVMSRFAADPHWLIYLPPTMSPCETSKKEGMLEHPIEAFEYFRTRGVGKVVCEQKHMGSRAVVIVCKDSQVAEKRFGVLDGTAGICYTRTGRHFFDDMQLEAELIDRVRKVLDKSGFWGDFNTDWVCLDCELMPWSAKAQKLLEEQYSAVGISGRVVLDEAVKLLKQASLNKTVSFDVSRQTSGKNADINELLQRFTERSEMMQKYVEAYRKYCWPVNSIDDLKLAPFHILATEGKVHSDKNHIWHMDTIAKYCTQDDSLIMATNHILVDVTDAESVDKGIKWWEDLTASGGEGMVVKPYDFIVKNGRELLQPAVKCRGREYLRIIYGPEYTMDENIERLRNRAVGKKRSLALREFSLGMEALERFVRNEPLYRVHECVFGVLALESEPVDPRL
B5: pylS (Methanosarcina mazei, UniProt Q8PWY1); chain MDKKPLNTLISATGLWMSRTGTIHKIKHHEVSRSKIYIEMACGDHLVVNNSRSSRTARALRHHKYRKTCKRCRVSDEDLNKFLTKANEDQTSVKVKVVSAPTRTKKAMPKSVARAPKPLENTEAAQAQPSGSKFSPAIPVSTQESVSVPASVSTSISSISTGATASALVKGNTNPITSMSAPVQASAPALTKSQTDRLEVLLNPKDEISLNSGKPFRELESELLSRRKKDLQQIYAEERENYLGKLEREITRFFVDRGFLEIKSPILIPLEYIERMGIDNDTELSKQIFRVDKNFCLRPMLAPNLYNYLRKLDRALPDPIKIFEIGPCYRKESDGKEHLEEFTMLNFCQMGSGCTRENLESIITDFLNHLGIDFKIVGDSCMVYGDTLDVMHGDLELSSAVVGPIPLDREWGIDKPWIGAGFGLERLLKVKHDFKNIKRAARSESYYNGISTNL
B6: protein L361A (Streptomyces toyocaensis, UniProt Q8KLK7); chain MTTVLPPLEDTDGLWAALTEAAASVEKLLATLPEHGARSSAERAEIAAAHDAARALRVRFLDTHADAVYDRLTDHRRVHLRLAELVEAAATAFPGLVPTQQQLAVERSLPQAAKEGHEIDQGIFLRAVLRSPLAGPHLLDAMLRPTPRALELLPEFVRTGEVEMEAVHLERRDGVARLTMCRDDRLNAEDGQQVDDMETAVDLALLDPGVRVGLLRGGVMSHPRYRGKRVFSAGINLKYLSQGGISLVDFLMRRELGYIHKLVRGVLTNDDRPGWWHSPRIEKPWVAAVDGFAIGGGAQLLLVFDRVLASSDAYFSLPAAKEGIIPGAANLRLGRFAGPRVSRQVILEGRRIWAKEPEARALVDEVVEPDELDAAIERSLTRLDGDAVLANRRMLNLADESPDGFRAYMAEFALMQALRLYGHDVIDKVGRFGGRPPA
B7: nitrilase (Rhodococcus rhodochrous, UniProt A4LA85); chain MVEYTNTFKVAAVQAQPVWFDAAKTVDKTVSIIAEAARNGCELVAFPEVFIPGYPYHIWVDSPLAGMAKFAVRYHENSLTMDSPHVQRLLDAARDHNIAVVVGISERDGGSLYMTQLIIDADGQLVARRRKLKPTHVERSVYGEGNGSDISVYDMPFARLGALNCWEHFQTLTKYAMYSMHEQVHVASWPGMSLYQPEVPAFGVDAQLTATRMYALEGQTFVVCTTQVVTPEAHEFFCENEEQRKLIGRGGGFARIIGPDGRDLATPLAEDEEGILYADIDLSAITLAKQAADPVGHYSRPDVLSLNFNQRRTTPVNTPLSTIHATHTFVPQFGALDGVRELNGADEQRALPSTHSDETDRATASI
B8: enzyme D418A (Limosilactobacillus reuteri, UniProt Q8GP32); chain SADTNIENNDSSTVQVTTGDNDIAVKSVTLGSGQVSAASDTTIRTSANANSASSAANTQNSNSQVASSAAITSSTSSAASSNNTDSKAAQENTNTAKNDDTQKAAPANESSEAKNEPAVNVNDSSAAKNDDQQSSKKNTTAKLNKDAENVVKKAGIDPNSLTDDQIKALNKMNFSKAAKSGTQMTYNDFQKIADTLIKQDGRYTVPFFKASEIKNMPAATTKDAQTNTIEPLDVWDSWPVQDVRTGQVANWNGYQLVIAMMGIPNQNDNHIYLLYNKYGDNELSHWKNVGPIFGYNSTAVSQEWSGSAVLNSDNSIQLFYTRVDTSDNNTNHQKIASATLYLTDNNGNVSLAQVANDHIVFEGDGYYYQTYDQWKATNKGAANIAMRDAHVIEDDNGDRYLVFEASTGLENYQGEDQIYNWLNYGGDDAFNIKSLFRILSNDDIKSRATWANAAIGILKLNKDEKNPKVAELYSPLISAPMVSDEIERPNVVKLGNKYYLFAATRLNRGSNDDAWMNANYAVGDNVAMVGYVADSLTGSYKPLNDSGVVLTASVPANWRTATYSYYAVPVAGKDDQVLVTSYMTNRNGVAGKGMDSTWAPSFLLQINPDNTTTVLAKMTNQGDWIWDDSSENLDMIGDLDSAALPGERDKPVDWDLIGYGLKP
B9: enzyme (Streptomyces coelicolor, UniProt Q9F1Y6); chain MPDSGTLGTPPPEQGPTPPTTLPDVPAPVIPSASVTSAASDFLAALHPPVTVPDPAPPPPPAPAAGNPPDTVTGDSVLQRILRGPTGPGTTSLAPAVRYGRQPGPEAPASAPPAAGRAVPGLYHHPVPEPDPVRVEEVSRRIKRWAEDEVQLYPEEWEGQFDGFSVGRYMVGCHPDAPTVDHLMLATRLMVAENAVDDCYCEDHGGSPVGLGGRLLLAHTAIDHFHSTAEYTPTWQASLAADAPRRAYDSAMGYFVRAATPSQSDRYRHDMARLHLGYLAEGAWAQTGHVPEVWEYLAMRQFNNFRPCPTITDTVGGYELPADLHARPDMQRVIALAGNATTIVNDLYSYTKELNSPGRHLNLPVVIAEREQLCERDAYLKAVEVHNELQHSFEAAAADLAEACPLPPVLRFLRGVAAWVDGNHDWHRTNTYRYSLPDFW
Chain of UniProt Q9UBD6 (whole entry, looked up): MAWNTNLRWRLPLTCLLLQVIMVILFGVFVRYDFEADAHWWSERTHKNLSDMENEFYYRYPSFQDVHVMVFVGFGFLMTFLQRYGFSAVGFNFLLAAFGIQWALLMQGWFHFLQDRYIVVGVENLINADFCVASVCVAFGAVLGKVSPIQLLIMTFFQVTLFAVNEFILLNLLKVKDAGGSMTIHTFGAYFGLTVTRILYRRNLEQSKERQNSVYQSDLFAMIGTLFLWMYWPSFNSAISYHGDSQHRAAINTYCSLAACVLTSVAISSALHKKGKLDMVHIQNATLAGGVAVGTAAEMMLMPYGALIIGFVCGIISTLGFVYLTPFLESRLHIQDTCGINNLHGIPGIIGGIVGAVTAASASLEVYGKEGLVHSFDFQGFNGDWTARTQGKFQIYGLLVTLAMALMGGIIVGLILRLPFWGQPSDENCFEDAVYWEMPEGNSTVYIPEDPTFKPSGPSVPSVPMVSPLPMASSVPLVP
Chain of UniProt P22303 (whole entry, looked up): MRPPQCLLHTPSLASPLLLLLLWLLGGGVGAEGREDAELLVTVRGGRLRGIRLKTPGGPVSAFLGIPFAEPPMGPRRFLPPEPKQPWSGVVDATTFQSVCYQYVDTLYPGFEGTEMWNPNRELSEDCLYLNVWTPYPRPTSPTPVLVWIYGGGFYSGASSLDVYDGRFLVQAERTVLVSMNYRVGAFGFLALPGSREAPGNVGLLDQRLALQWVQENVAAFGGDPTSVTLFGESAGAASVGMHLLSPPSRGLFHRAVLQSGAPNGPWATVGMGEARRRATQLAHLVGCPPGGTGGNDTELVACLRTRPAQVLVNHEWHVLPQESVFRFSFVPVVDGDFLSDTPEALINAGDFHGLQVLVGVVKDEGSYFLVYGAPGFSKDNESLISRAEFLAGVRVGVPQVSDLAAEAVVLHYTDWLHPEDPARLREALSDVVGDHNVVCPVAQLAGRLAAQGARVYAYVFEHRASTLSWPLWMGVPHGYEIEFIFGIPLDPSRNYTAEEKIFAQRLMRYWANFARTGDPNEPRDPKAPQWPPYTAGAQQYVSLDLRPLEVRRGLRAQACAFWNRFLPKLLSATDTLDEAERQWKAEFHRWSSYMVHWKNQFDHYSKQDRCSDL

Molecule	substrate	conditions	Km [µM]
pyc R472S (Rhizobium etli)	Nc1ncnc2c1ncn2[C@@H]1O[C@H](COP(=O)(O)OP(=O)(O)OP(=O)(O)O)[C@@H](O)[C@H]1O	pH 7.8, 30 °C	1000
B1 (GLYR2)	NC(=O)C1=CN([C@@H]2O[C@H](COP(=O)(O)OP(=O)(O)OC[C@H]3O[C@@H](n4cnc5c(N)ncnc54)[C@H](OP(=O)(O)O)[C@@H]3O)[C@@H](O)[C@H]2O)C=CC1	pH 7.6, 30 °C, cofactor varied	1.4
B2 (enzyme N249W)	CC(=O)SCCNC(=O)CCNC(=O)[C@H](O)C(C)(C)COP(=O)(O)OP(=O)(O)OC[C@H]1O[C@@H](n2cnc3c(N)ncnc32)[C@H](O)[C@@H]1OP(=O)(O)O	pH 7.4, 37 °C	1150
B3 (waaG)	O=c1ccn([C@@H]2O[C@H](CO[P@@](=O)(O)O[P@@](=O)(O)O[C@H]3O[C@H](CO)[C@@H](O)[C@H](O)[C@H]3O)[C@@H](O)[C@H]2O)c(=O)[nH]1	pH 7.5, 25 °C, apparent	162
B4 (enzyme H376D)	Nc1ncnc2c1ncn2[C@@H]1O[C@H](CO)[C@H]2OP(=O)(O)O[C@H]21	pH 7.5, 45 °C	3900
RHCG (Homo sapiens, UniProt Q9UBD6)	CN	not purified	3800
B5 (pylS)	C=CCOC(=O)NCCCC[C@H](N)C(=O)O	pH 7.2, 37 °C, apparent	720
B6 (protein L361A)	CC(C)(COP(=O)(O)OP(=O)(O)OC[C@H]1O[C@@H](n2cnc3c(N)ncnc32)[C@H](O)[C@@H]1OP(=O)(O)O)[C@@H](O)C(=O)NCCC(=O)NCCSC(=O)Cc1cc(O)cc(O)c1	pH 7.5, 24 °C, with: O2	4.4
Cj1427c (Campylobacter jejuni, UniProt Q0P8I7)	O=C(O)CCC(=O)C(=O)O	pH 7.4, 30 °C, apparent	130
wbpB (Pseudomonas aeruginosa, UniProt G3XD23)	CC(=O)N[C@H]1[C@@H](OP(=O)(O)OP(=O)(O)OC[C@H]2O[C@@H](n3ccc(=O)[nH]c3=O)[C@H](O)[C@@H]2O)O[C@H](C(=O)O)[C@@H](O)[C@@H]1O	pH 8.5, 25 °C	250
Lxyl-p1-1 (Lentinula edodes, UniProt G8GLN9)	[H][C@]12[C@H](OC(=O)c3ccccc3)[C@]3(O)C[C@H](OC(=O)[C@H](O)[C@@H](NC(=O)c4ccccc4)c4ccccc4)C(C)=C([C@@H](O)C(=O)[C@]1(C)[C@@H](O[C@@H]1OC[C@@H](O)[C@H](O)[C@H]1O)C[C@@]1([H])OC[C@@]21OC(C)=O)C3(C)C		570
ACHE (Homo sapiens, UniProt P22303)	CC(=O)SC[N+](C)(C)C	pH 7, 25 °C, apparent	470
B7 (nitrilase)	N#CCCCCC#N	pH 7.5, 25 °C	933
B8 (enzyme D418A)	OC[C@H]1O[C@@](CO)(O[C@H]2O[C@H](CO)[C@@H](O)[C@H](O)[C@H]2O)[C@@H](O)[C@@H]1O	pH 5.5, 50 °C, apparent	78000
B9 (enzyme)	CC(C)=CCC/C(C)=C(\C)COP(=O)(O)OP(=O)(O)O	pH 6.7, 30 °C	95
tgt C145V/P147N/T146V/V217G (Escherichia coli)	Nc1nc2nc[nH]c2c(=O)[nH]1	pH 7.3, 37 °C	35

A few entries again:
Molecule	substrate	conditions	Km [µM]
Lxyl-p1-1 (Lentinula edodes, UniProt G8GLN9)	[H][C@]12[C@H](OC(=O)c3ccccc3)[C@]3(O)C[C@H](OC(=O)[C@H](O)[C@@H](NC(=O)c4ccccc4)c4ccccc4)C(C)=C([C@@H](O)C(=O)[C@]1(C)[C@@H](O[C@@H]1OC[C@@H](O)[C@H](O)[C@H]1O)C[C@@]1([H])OC[C@@]21OC(C)=O)C3(C)C		570
